Experimental data pooled from the literature.
Each numbered part is a random draw from the data of one study; scales do not carry over between parts. Substitutions count along the parent as printed.

Set 1
Target: CCND1, cyclin fold, Cln2 fusion (human)
Method: yeast growth competition, sequencing
Sample: yeast
Notes: weak parent motif
Relative to: not given
Reading: higher = stronger binding
Endpoint: normalised enrichment score
Starting sequence: viral docking peptide; TSVRRALFTGGSD; partner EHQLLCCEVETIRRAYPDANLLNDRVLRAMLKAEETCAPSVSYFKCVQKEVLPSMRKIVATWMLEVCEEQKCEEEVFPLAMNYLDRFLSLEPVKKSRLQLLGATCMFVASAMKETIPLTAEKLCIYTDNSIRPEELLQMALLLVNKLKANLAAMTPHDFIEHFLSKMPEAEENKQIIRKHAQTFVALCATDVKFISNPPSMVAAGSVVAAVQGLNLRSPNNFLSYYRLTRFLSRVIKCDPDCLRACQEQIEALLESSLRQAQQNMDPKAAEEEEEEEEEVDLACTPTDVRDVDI
A6G: 0.261
S2M: 0.449
R5L: -0.108
R5E: 0.133
R4H: -0.268
S12I: 0.518
G11A: 0.529
L7Y: 0.389
R5K F8L: 0.262
V3F: 0.153
V3M: 0.111
R4Y: 0.425
T9N: 0.369
R5H: 0.287
S2L: 0.541

Set 2
Target: Hepatocyte nuclear factor 3-beta, forkhead domain (FOXA2, Homo sapiens, UniProt Q9Y261, residues 142-269)
Method: protein-binding microarray
Form: double-stranded DNA, one strand shown
Sample: in vitro
Concentration: not given
Notes: k-mer, scored over probes, only values ≥0.25
Reading: higher = stronger binding
Endpoint: E-score
Construct (chain): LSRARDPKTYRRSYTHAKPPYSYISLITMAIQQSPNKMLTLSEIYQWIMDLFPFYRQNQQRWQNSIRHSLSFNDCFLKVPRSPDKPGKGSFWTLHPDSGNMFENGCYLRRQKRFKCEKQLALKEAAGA
TATAAGCA: 0.311
ACAACAAA: 0.3
ATATAAAG: 0.258
ACACAACA: 0.34
ATAGTAAC: 0.345
TACGTTGA: 0.297
AATGGAAT: 0.267
GGTACACA: 0.264

Set 3
Target: tungstate, free oxyanion
Method: microfluidic competitive inhibition
Sample: in vitro, cell-free expressed
Concentration: not given
Notes: derived from inhibition constants, unchanged parent 2230 nM
Reading: lower = stronger binding
Endpoint: oxyanion analog dissociation constant
Starting sequence: PafA, mature enzyme, eGFP fusion (Elizabethkingia meningoseptica, UniProt Q9KJX5); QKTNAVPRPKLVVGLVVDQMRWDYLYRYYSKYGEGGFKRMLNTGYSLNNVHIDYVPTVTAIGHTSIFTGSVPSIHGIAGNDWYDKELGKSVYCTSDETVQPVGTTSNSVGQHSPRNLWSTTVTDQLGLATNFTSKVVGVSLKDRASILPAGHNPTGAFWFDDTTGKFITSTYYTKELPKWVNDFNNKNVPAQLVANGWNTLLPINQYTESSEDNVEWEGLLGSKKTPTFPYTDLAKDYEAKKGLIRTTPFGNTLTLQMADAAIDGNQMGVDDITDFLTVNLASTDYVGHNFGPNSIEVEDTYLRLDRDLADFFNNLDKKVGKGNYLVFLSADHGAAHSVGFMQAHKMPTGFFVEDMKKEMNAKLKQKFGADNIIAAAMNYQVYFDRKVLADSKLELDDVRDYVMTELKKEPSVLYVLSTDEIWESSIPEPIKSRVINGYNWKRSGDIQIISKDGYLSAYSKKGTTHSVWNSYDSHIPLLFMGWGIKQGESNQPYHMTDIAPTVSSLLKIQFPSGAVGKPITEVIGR
K166V: 2.36 µM
S451V: 2.32 µM
P501G: 2.02 µM
E216G: 1.94 µM
E209G: 1.53 µM
P7V: 2.36 µM
G127V: 2.39 µM
K358G: 1.88 µM
Q448V: 2.81 µM
D285G: < 92.4 nM
T502G: 1.5 µM
G197A: 1.56 µM
C93V: 1.67 µM
N437G: 2.07 µM
P348G: 1.14 µM
L479V: 2.31 µM
D355V: 2.12 µM
K486G: 2.26 µM
I374V: 2.37 µM
S113G: 1.55 µM
D385G: 2.07 µM
Q1G: 2.39 µM
T284V: 2.48 µM
P411G: 2.27 µM
G445A: 1.19 µM

Set 4
Target: Centromere-binding protein 1, full length, His-tagged (CBF1, Saccharomyces cerevisiae, UniProt P17106, residues 1-351)
Chain of UniProt P17106 (whole entry, looked up): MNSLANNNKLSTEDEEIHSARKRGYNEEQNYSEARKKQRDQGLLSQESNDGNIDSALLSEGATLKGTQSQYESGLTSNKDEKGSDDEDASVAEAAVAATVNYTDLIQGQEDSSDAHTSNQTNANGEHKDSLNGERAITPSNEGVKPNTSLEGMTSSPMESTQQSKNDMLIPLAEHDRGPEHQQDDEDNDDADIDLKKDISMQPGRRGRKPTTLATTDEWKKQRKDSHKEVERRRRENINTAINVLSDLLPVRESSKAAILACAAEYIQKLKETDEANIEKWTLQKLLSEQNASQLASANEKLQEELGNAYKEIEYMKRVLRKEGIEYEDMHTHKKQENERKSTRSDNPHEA
Method: competition protein-binding microarray
Form: double-stranded DNA, one strand shown
Sample: in vitro
Concentration: 2 µM
Notes: whole 60-bp probe, lowest competitor level
Together with: Pho4 competitor, 0.05 µM
Reading: higher = stronger binding
Endpoint: fluorescence intensity
Shared flanks, not repeated: … GTCTTGATTCGCTTGACGCTGCTG
AACTGCGACCGACACAGCGTGCGATACTAGGGAAGT: 64 a.u.
CATACCCAACCTTGTCACATGACTTAAGATATTTGT: 4090 a.u.
ATGGGCCGATAGTACCACCTGATCTTGAGTTGTTTT: 242 a.u.
GAGAGAATGAACCATCACGTGTGAACCCAAAAGGCC: 2250 a.u.
TTATGTACAACAGCCCTCGTGCTTTCACCGTTGTAG: 138 a.u.
CTGCAAGGAAGTTTAAGCGTGGGTAACTTTGCTAGG: 70.2 a.u.
ACTGGTTACGATGATAACGAGCACTATGTTTCCCCC: 89 a.u.
TGCGCAACAACTTGAATTGTGGGTGTATGTCTAGAA: 69 a.u.

For quick reference, copied from above (set 2):
ACACAACA: 0.34
ATAGTAAC: 0.345
TACGTTGA: 0.297
AATGGAAT: 0.267
